Measurements gathered from unrelated publications.
Numbered parts are unrelated; each lists some results of a single study.

Study 1
Target: Ras GTPase-activating protein-binding protein 1, RRM domain (G3BP1, Homo sapiens, UniProt Q13283)
UniProt Q13283, sequence (whole entry, looked up): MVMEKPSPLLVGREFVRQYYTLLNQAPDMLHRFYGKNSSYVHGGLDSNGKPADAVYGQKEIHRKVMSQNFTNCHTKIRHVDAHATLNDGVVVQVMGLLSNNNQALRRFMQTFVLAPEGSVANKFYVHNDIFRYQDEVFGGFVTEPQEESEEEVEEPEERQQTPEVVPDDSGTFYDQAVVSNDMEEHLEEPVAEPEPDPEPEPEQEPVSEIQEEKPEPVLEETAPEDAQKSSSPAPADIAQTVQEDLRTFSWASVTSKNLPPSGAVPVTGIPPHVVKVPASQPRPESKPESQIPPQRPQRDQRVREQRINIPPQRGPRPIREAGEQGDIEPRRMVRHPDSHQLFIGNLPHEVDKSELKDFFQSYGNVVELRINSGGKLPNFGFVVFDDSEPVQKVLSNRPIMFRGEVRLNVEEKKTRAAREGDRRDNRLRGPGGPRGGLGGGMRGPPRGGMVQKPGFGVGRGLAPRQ
Technique: RNA Bind-n-Seq
Form: RNA
Matrix: in vitro
Tested at: 1 µM
Notes: whole 134-nt RNA, ends assumed
With: 150 mM KCl
Relative to: input library
Reading: higher = stronger binding
Shared flanks, not repeated: GGGAGUUCUACAGUCCGACGAUC … UGGAAUUCUCGGGUGUCAAGG
Strand	log2 enrichment
GUCCUGUGCUACACAUCGUAUGUACCGAAUCGGGGUUUUUGGGGAAAAAGGGGUGGGGAAAGUAUUAUGUUACGCCGUUCGGAUCUGCAC	0.885
UGGGAGGUGGAUUUUGUUUAUUUUUUUAGCUCAUUUCCAGGGGUGGGAAUUUUUUUUUAAAAUGUGUCAUGAAUAAAGUUGUUUUUGAAA	1.58
UAACUUUAGAGGAGGUUCUGAUGGAUAUGGCAGUGGACGUGGAUUUGGGGAUGGCUAUAAUGGGUAUGGAGGAGGACCUGGAGGUGGCAA	-0.73
ACCAUGCAGGUGGGCAUCUUUGGGAAGUGGGGCAAGGGGGGGAUAGGGAGGGGGGUAACACUUUGGGAACAGGUGGUCCCAGGUCGUGUC	0.982
CUCAAGUCCUGUGCUACACAUCGUAUGUACCGAAUCGGGGAAGGGGAAGGAAGGAAAGUAUUAUGUUACGCCGUUCGGAUCUGCACUUCC	-0.416
CAAGUCCUGUGCUACACAUCGUAUGUACCGAAUCGGUUUUUUUGGAAAAAGGUGGAAAGUAUUAUGUUACGCCGUUCGGAUCUGCACUUC	-0.426
CUCAAGUCCUGUGCUACACAUCGUAUGUACCGAAUCGGGGAAGGGAAGGGAAGGAAAGUAUUAUGUUACGCCGUUCGGAUCUGCACUUCC	-0.238
AGUCCUGUGCUACACAUCGUAUGUACCGAAUCGGGUUUUUGGGAGGGAAAAAAAGGGAAAGUAUUAUGUUACGCCGUUCGGAUCUGCACU	0.215
AAGUCCUGUGCUACACAUCGUAUGUACCGAAUCGGGGUGGGGUUUGGGGUUUGGGGAAAGUAUUAUGUUACGCCGUUCGGAUCUGCACUU	1.12
AAGUCCUGUGCUACACAUCGUAUGUACCGAAUCAAAUUUAAAUUUAAAUUUUUAAAAAAGUAUUAUGUUACGCCGUUCGGAUCUGCACUU	-0.636

Study 2
Target: RING finger protein unkempt homolog, zinc fingers 1-6, SBP tag (UNK, Homo sapiens, UniProt Q9C0B0, residues 30-357)
UniProt Q9C0B0, sequence (30-357, looked up): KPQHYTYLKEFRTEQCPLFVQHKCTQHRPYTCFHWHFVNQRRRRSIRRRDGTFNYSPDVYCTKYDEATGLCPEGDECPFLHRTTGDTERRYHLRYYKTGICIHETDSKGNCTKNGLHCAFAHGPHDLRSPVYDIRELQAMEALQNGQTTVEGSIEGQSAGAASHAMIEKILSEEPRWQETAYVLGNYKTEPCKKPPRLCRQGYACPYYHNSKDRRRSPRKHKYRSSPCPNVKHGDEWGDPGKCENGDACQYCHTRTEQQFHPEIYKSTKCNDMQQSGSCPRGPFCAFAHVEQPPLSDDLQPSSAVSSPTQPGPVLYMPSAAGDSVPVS
Technique: RNA Bind-n-Seq
Form: RNA
Matrix: in vitro
Tested at: 100 nM
Notes: RNA with constant flanks, vertebrate orthologous sites, ends assumed
Relative to: input RNA pool
Reading: higher = stronger binding
Shared flanks, not repeated: GGGAGUUCUACAGUCCGACGAUC … CAACAGAGGAUUGAGCAUCA
Strand	bound/input enrichment
CAUGUCCUUGUUACUGUGAUAUUUAAAAUAGCCACAGUAUUCACCUUUUCCAAAUGAUUCUAGUAAUAUCUUUCUCUUAUCUGUUAUUUAUCAAUUUUUCCCAGUAUUUUUAUAUGGAAA	1.76 ratio
AGUUUGUAUGUACAUUAUUCACAUUCCUCUCUGUUGUGUUUUGGGGGAAAAAAAGACAUUUUAGCCUUUUUUAAGGUUAUUGAUUUAAUUUCAUGUUAUUUGGUUGCAUGAAGUUGCCCU	0.393 ratio
GGCAGGGCCCAGGCCCCUGCCACUCAGAGUGGCCCACUGGCCACUUCAGCCAGGCCAUUUUGGCUUUGUUUUUUAACAGUGCCCUUAUUACCCUGUAUAUAUGCCUGAUAUUUGGACAUA	0.238 ratio
UCAUUUUUGAUUUUAAUUUUAUUUUAUACAACGUGUAGACAGUUCCCUGUUCUCUGCAUUUAGAAGUAUACACAGUACAACUCUGUUAAUUCUGUAAGUAAUUUUUAUAAUUAUGAUGUA	0.423 ratio
GUUGUGACCCCUUUAACAUACAUAAAAAACUAGCCAAAAAAAACUUGCAUGUAAUUGACUUAGAUGAUGCCACUUUCCUGAGUGCAAAAUUUGGCAGACAGCUUGUACCUGGUUGGAAGC	1.13 ratio
UCCUCAACUUGUUCUAGCUUGUGACCCUUCAAAGUUGGGUCAUACAUUACUGCUAGACACUGGAAGUUUUCGUUUCUCUCGCUCCACUGAUUAGAAAGGCAGUAAAAAACCAGGAAUAUA	0.595 ratio
UGGCCUUGAGGUGUGGGGCACUGCUGGCUGCUUAGCGUUGUUAAAUUUGUGACCUUGACAUCAUAGAUAGGCUUGUGGUGUUUUUUUAAUUUAAAGAUAUUAAGACUUAAUUCACUAAAA	0.724 ratio
CCAGUUUGUAUGUACAUUAUUCACAUUCCUCUCUGUUGUGUUUGGGGGAAAAAAGACAUUUUAGCCUUUUUUAAGGUUAUUGAUUUGAUUUCGUUAUUUGGUUGCAUGAAGUUGCCCUUA	0.36 ratio
CUACUAUAAACAACUCAGGGCAGUAUUCUCGCUAUCCUUACAGUAACCUAAAUCAGGGAUUAGUUAACAAUACAGGGAUGAAUCAGAAUCUAGGCCUUACAAAUAAUACUCCAAUGAACC	1.05 ratio
UUAAAGUCAUUUUUUCACAUUUCCUGUAAAUAAUGGGUAAUCAUUUUUUAUUUUAUUUUUAAGUGCUGUUUUAACAAUGUGGAUAGACCAUAAAUGUACUUGCUGAAUUCAUUCAUUUUU	0.358 ratio
AUUAAAUGCAUAUCAAAUGCUGGAUAUCCCAUUAAACCAUCAUUUAGGAUAGAUGUUUGUUAUAAUUAAGCUACAAAUAGUUAUAAUUAAGCUACAAAUAUUAAACCAGAAAUGCACUGC	0.283 ratio

Study 3
Target: RNA binding protein fox-1 homolog 2, RRM domain, GST-SBP tag (RBFOX2, Homo sapiens, UniProt O43251-10, residues 100-194)
Technique: RNA Bind-n-Seq
Form: RNA
Matrix: in vitro
Tested at: 365 nM
Notes: natural RNA segment, single round, ends assumed
Relative to: no-protein control
Reading: higher = stronger binding
Shared flanks, not repeated: GGGAGUUCUACAGUCCGACGAUC … UGGAAUUCUCGGGUGCCAA
Construct (chain): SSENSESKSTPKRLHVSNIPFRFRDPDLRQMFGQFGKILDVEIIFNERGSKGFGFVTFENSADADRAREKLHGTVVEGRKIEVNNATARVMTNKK
Strand	RBNS enrichment (R)
UUAACCAAAAGAUACAGUGAUAUAGCCAUGUACUGUGGGUGGGACAGAUACAGUCUCCUUGGCCUAUAAUGAAACCACUAGGACUUUAUACAGUUUUCCUUAAUUUGUUG	0.473
GAGGGCUGGACAUUUGUGGCAGUGCUGAAGGGGGCAUUGCCGGCGAGUAAAGUAUUAUGUUUCUUCUUGUCACCCCAGUUCCCUUGGUGGCAACCCCAGACCCAACCCAU	0.34
CCAUCUUUUAGGAUGGGCCCCCAGGAGACUGAGGUCUUCCUGGGCCCUCAUUGCUGCUUAUCGUACCCCCCAUCACCUGCACAUGGGACAGACCGGGCUGGAGGGUGACC	0.66
GCCACUGCGCCUGGCCUCAGAAUGCAUUCUUACACAUCUAUCCUAGACAUUUAUAAGCACUCUAAUGGAUAACAAUCCAAGAAUAAAUGAUUGUAAAAGAUGAUGCCGAA	1.52
CCUGCCAGCCUGUCCACAUUUGUCAUGGGCCAAGCCACAGCCUUUGAAUGAGACGGCACCCAGUAAUCUUUGGAAACAUCAGAAGCUGCUCUCCAUUGACCUGGACAAAG	0.487
ACGGGGCCGGCCAGGUGGGCGGGCAGCACAGCAAGGAGGCUGGCUGGGGCCUAUCAGUGUGCCCCCCAUCCUGGCCCAUCAGUGUACCCCCGCCCAGGCUGGCCAGCCCC	0.435
AUUGUGGGAUGUUUAAAAAUGGUUUGUUGUUGUUGUUUUGGUUUCUGAAGACAGUAUUGCUAUAUAUCCCAGUCUGACCUUACUGUGUGUUUGAGGCUAACCUAGAAAUU	1.9
GGGGUUUUUUCCCUACUCAAGCAUUCGGAGACACUUUCUGUAAAUGUUAACCUUUAUGUCAGCCAUCGUCAGUUUCAACAUCUAGACCUAAAUAGAAAGUUAGCUGUUCC	0.311
CCUCUUAUGUGUAUUGAUGGGGCAUGAGGAGCCCAGGCAAGGAGAGGCUCGUGGAGAGGCUGAGGGAAUGUUACUAAGUUUCCCUCCGUUUGUCUCCAGUCUGGUGCCAG	7.16
ACCUCCUGCCAUUCAGUGAGCACUAGGACAGCUGGGACCUCCUGCCAUUCAGUGAGCACUAGGACAGCUGGGACCUCCUGCCAUUCAGUGAGCACUAGGACAGCUGGGGG	0.199
UGGAUGUAUUGUACAGAGAACAUGAACGUCUCUUCCUAAUUUUACAUCUUCAGCAUCAUUGCAUUAAAGUGGUGUAAUCUCCUUCUCUACAUCUGUUGUCAGAGCCACUG	1.15
ACUGGCAAUUUUAUAGAGGGUUGGUUUAGUUCUUUGCUUUUUCAACAGGAAAUAACACUUCAGGAGGAACUGAAACUAGCUAAGCCUUCCUUUUUAGCAAGUAAACCUUG	0.28

Study 4
Target: Hepatocyte nuclear factor 3-alpha (Foxa1, Mus musculus, UniProt P35582, residues 1-468, full length assumed)
Technique: EMSA with sequencing
Form: double-stranded DNA, one strand shown
Matrix: in vitro
Tested at: 10 and 20 nM
Notes: whole designed probe, mean of two concentrations, ends assumed
Relative to: negative control set to 0
Reading: higher = stronger binding
Shared flanks, not repeated: GTGAGCGGTGCCCATTGATGGGGAAC … TTTCACTGGGATCGTGGGGAC
Target sequence (chain): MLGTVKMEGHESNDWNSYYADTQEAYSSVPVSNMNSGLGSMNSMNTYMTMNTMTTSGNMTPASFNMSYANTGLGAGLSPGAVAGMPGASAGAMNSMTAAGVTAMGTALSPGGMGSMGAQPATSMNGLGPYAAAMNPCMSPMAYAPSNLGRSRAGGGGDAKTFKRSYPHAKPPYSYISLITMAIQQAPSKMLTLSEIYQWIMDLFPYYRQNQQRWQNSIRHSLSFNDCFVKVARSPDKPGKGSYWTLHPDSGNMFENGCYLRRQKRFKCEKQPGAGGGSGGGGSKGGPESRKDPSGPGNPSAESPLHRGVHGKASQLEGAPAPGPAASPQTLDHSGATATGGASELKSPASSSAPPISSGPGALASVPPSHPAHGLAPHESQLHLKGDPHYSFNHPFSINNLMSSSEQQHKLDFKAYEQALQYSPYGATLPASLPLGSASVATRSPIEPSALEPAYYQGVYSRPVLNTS
Strand	normalised bound fraction
CAGCCCACATGCCTTTGTTGTGGCTTCCAAGTTTTCTTTTCCACGTCACCTGCGCTGCTTGCTCTCTGGTTTTGTTGACTTTAGTGCTGTCTCTGTTTGCTCTGGCTGAGCCAACAGCCTCAGGATGAAACTCTGAGCCCAGGAAGTGTGAACCTGAGAGGCAGCAGGCTGGGGGTGGGGACGGAGGCAAATG	0.435 ratio
GGCTCCAAACGGCTGAATCAGCATTTTCAGAAACAAAGTGTTCTAGGCCTGGCCTTTTAAACAGCAGCAACGAGCAAGTTGTGCAATAACGCATATTTACTCACGAGCTCTCCTTGTTTTGGTCTTTCCCCCCTCCCCCCCATCTCTTGAATGAAACTGGGCACCAAGTTTGCAAGAAAATATTCTTTCAAAC	0.0937 ratio
AATTTCACTAATTACTGATTCTATGAATAGGATAATGATTATGAAGAAAAATGCAAAAGTACAATCTCTTGAGCTGAAGAAAAAAATACAGAGTAAACATGCTCCTCATAAGAATACTGTCTAAATCGAATGACCAACAAGACTGATTTGATGTTTGGTTGCAGAGATACTAGTCAAGTTTATTTTAATTCTT	0.257 ratio
AATCTGTGAGGATTTTTTGTTTAGAAATAAACAAATTACCCACTTCTCACTATCTTTTTGCACTAATACCTTGAAAAAATGTAAATTGGACAGTGTAAACATGCAAAATTGTTGGCATGTAGGAGAGAATTTTTCTACTTTTCTAAAGATTCAAGACTCGTTTTTGAGTCCTAAAAACAAACACATTAAGGAC	0.51 ratio
GGGATGCAACGATGACTCCCTCCTCTAAATGTCTTGAACACTTATCAAATATTACATTTATTTCAAATGAAATTTTTATTGTCATTTGCTCATGTTTACATTGTGTCCCTCCTGCTAGGTTTTATAAATGAGCTGTTGTATAACTCTTCGGGTCCCCCAGTGTGTAATAACAGGTGCTTAATAAACATTTCAT	0.441 ratio
AGATTAAGTGTTACACTTCTTGCTTTGTTAGATAAATTGAACCACAGCAAATTTTACAAACATAATTTGTCCATATTTTCATAATAAACTCTATGTAAACATCAGTTTTCTTGTTCCTTTAAAAACAAAATAATTCATATCAAACTGTCTTGAATAAGAAAGGCAAACCAGTCACAAGTCCACAATATTAAAG	0.391 ratio
GGCTCCAAACGGCTGAATCAGCATTTTCAGAAACAAAGTGTTCTAGGCCTGGCCTTTTAAACAGCAGCAACGAGCAAAAGTTGTGCAATCGCATATTTACTCACGAGCTCTCCTTGTTTTGGTCTTTCCCCCCTCCCCCCCATCTCTTGAATGAAACTGGGCACCAAGTTTGCAAGAAAATATTCTTTCAAAC	0.12 ratio
TGTATCCATCTGGGCAGTATCTTCTCTGGGCCTGGCCTGTCATAGGTGCTTCAGGTTTCCCCATTTGAACCAGATACCAGTCGGGTTACCGGATGTTTGCTTAAAATGAGTCATAATTCCTGTGGGCTTCCTGCTCTGCTTCCAGCTAGGACTGATCGAATCAGTCTGGATTTTCCTTGGGGTGATCCGCAGG	0.126 ratio

Some of these lines once more (study 1):
Strand	log2 enrichment
AAGUCCUGUGCUACACAUCGUAUGUACCGAAUCAAAUUUAAAUUUAAAUUUUUAAAAAAGUAUUAUGUUACGCCGUUCGGAUCUGCACUU	-0.636
CAAGUCCUGUGCUACACAUCGUAUGUACCGAAUCGGUUUUUUUGGAAAAAGGUGGAAAGUAUUAUGUUACGCCGUUCGGAUCUGCACUUC	-0.426
ACCAUGCAGGUGGGCAUCUUUGGGAAGUGGGGCAAGGGGGGGAUAGGGAGGGGGGUAACACUUUGGGAACAGGUGGUCCCAGGUCGUGUC	0.982
